{"data": "Assay results gathered from unrelated publications", "note": "Every numbered part comes from another study and shows a few of its results, in no order."}
{"data": "Study 1", "target": "RNA binding protein fox-1 homolog 2, RRM domain, GST-SBP tag (RBFOX2, Homo sapiens, UniProt O43251-10, residues 100-194)", "method": "RNA Bind-n-Seq", "form": "RNA", "sample": "in vitro", "tested at": "365 nM", "setting": "natural RNA segment, single round, ends assumed", "relative to": "no-protein control", "direction": "higher = stronger binding", "shared flanks, not repeated": "GGGAGUUCUACAGUCCGACGAUC … UGGAAUUCUCGGGUGCCAA"}
{"Strand": "GUGGCGCCUCCCGCAGCUUCCCUUCUCUCUCCAGUGCUGCCCGCUGUGUCUAGCAGCCUCUAGGAUCUUGUCAGAGCUGCACCUCUCUGUGAACUGGCCAUUCCUUUCGG", "RBNS enrichment (R)": 0.375}
{"Strand": "CUGCUGCCCUAGAACUAGCGGUUAGAAGAAUCCGCUGUUCCUCCCUCAUCUCCUCUGCCUGUGUCUGCGACCCCCAUCCAUGUGCCAAAGUGUCCCUUGGGUCACACAGC", "RBNS enrichment (R)": 0.783}
{"Strand": "UGUUUUUAGUUUUAUGUACUCAUUUCCCUUUGUUUUCCUCAAACAGCAUGAUUUUUUUGCACAUGUAGAAAUUUUUUAAAAGAAAGAAAUUAGUACAUCAUUUUCUCUGG", "RBNS enrichment (R)": 1.91}
{"Strand": "CCUCUCAAACGAUCUUUAGAUAGUUAACUUCUACUACUAUUUAACGUUAUCUUUUAGCACUCAUAGAACAAACCAAGAUAUGGAAGAAGACAUAUUCAAAAGGUGGGCUU", "RBNS enrichment (R)": 0.671}
{"Strand": "CUGGUUUUAUUUGUCUCUGGUCCACAAGAGUGUUUUGGCAACUGCCUGGAGCUUGCAUGUUGGGACAAAUCAGGACAAGUGCCAGCAGCCUGAAUAUUUCCAGUGCCUAC", "RBNS enrichment (R)": 4.85}
{"Strand": "UGAAAAUAUGUAAAGCUGUUGAGAUGUGUUUACUUAUACUUCAGAACAUUAAAAGUUUAAAAACUGGAUUUCAGAUCAAAGAGGCAUCAUUAUCUUUAUUCUGUUUUUCA", "RBNS enrichment (R)": 0.789}
{"Strand": "UGUGUUGCUUAAACUUCAAGAAUUACAAAUGUGGACCUGGCACAUGCUGUGGUUUAACAUUGACACUUAAAGCAUGUGGUCACUGGGAAGGAUUGUAAUGUCAGCAGGUG", "RBNS enrichment (R)": 2.8}
{"Strand": "GUUGACUGUCUCAGAGACUGUAAGCUCCCGGAGAGCAGGGUUGCUGUAAUGGGAAUGUUUAAGUGUUGUGUGCAAGAAAACAAAAUAAAUAUUUUGAUUUUCGUGAUUCU", "RBNS enrichment (R)": 1.78}
{"data": "Study 2", "target": "Interferon regulatory factor 3, full length, phosphomimetic (IRF3, Homo sapiens, UniProt Q14653, residues 1-427, S386D/S396D/S398D/S402D/T404D/S405D)", "method": "protein-binding microarray", "form": "double-stranded DNA, one strand shown", "sample": "in vitro", "tested at": "2540 nM top", "setting": "60-bp whole probe", "added": "salmon DNA 0.4 mg/ml", "relative to": "random background probes", "direction": "higher = stronger binding", "shared flanks, not repeated": "GCCTAGCAC … GTCTTGATTCGCTTGACGCTGCTG", "Residues (chain)": "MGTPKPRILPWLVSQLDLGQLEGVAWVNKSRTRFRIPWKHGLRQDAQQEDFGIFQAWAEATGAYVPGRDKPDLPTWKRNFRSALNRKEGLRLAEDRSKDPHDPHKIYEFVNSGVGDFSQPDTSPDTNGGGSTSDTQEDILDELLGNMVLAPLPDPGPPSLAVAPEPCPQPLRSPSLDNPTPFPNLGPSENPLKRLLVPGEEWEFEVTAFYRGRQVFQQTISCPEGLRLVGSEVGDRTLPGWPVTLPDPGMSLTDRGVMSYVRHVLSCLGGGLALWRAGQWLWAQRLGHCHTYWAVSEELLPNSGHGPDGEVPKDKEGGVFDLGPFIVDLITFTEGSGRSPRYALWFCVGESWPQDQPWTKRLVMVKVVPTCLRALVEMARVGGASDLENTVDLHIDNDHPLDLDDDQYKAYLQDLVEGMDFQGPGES"}
{"Strand": "TGAGATTTCGGGACTGGATTAGTGCTA", "fitted relative affinity [z-score]": 1.06}
{"Strand": "TTAGGTCTCGTTATCGGTTAGTGCTAG", "fitted relative affinity [z-score]": 1.18}
{"Strand": "TTAGGACTGGGTCTCGATTAGTGCTAG", "fitted relative affinity [z-score]": -0.543}
{"Strand": "GAAATTCTCATTTCCAATTAGTGCTAG", "fitted relative affinity [z-score]": 3.05}
{"Strand": "TCAGGTCTCCCTTGAGGTTTGTGCTAG", "fitted relative affinity [z-score]": 0.719}
{"Strand": "GAGGGTTCCCTTTTCCTGACGTGCTAG", "fitted relative affinity [z-score]": 5.85}
{"Strand": "TATTTTTTTTATTTATAAATGTGCTAG", "fitted relative affinity [z-score]": 1.36}
{"Strand": "TCAGTCCTCACTTCCTTACTGTGCTAG", "fitted relative affinity [z-score]": 0.639}
{"data": "Single results of other studies", "SMN1 full length": "SMN1, full length (human, UniProt Q16637, residues 1-294)", "chain of UniProt Q16637 (whole entry, looked up)": "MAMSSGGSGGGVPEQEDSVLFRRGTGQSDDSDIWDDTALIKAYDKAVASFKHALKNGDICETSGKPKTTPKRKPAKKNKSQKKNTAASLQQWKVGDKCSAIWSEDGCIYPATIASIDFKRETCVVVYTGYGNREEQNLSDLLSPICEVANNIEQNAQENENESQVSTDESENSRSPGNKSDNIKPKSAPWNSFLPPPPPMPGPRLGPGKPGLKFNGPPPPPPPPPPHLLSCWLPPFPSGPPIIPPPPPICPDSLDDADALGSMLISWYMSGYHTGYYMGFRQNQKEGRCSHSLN"}
{"Substance": "GGGCUCACCACGCACGUGCGGCCAAAGAGGGUUGCGUUCCCCUCACCACGGCAAGCU", "target": "SMN1 full length", "assay": "nitrocellulose filter binding", "system": "RNA, in vitro", "setting": "100 nM, whole RNA, constant flanks, single concentration, ends assumed", "how to read": "relative to: round 9 selected pool, higher = stronger binding", "quantity": "relative RNA binding", "value": "27 % of pool"}
{"Substance": "YQAFRTKVH", "target": "HLA class I histocompatibility antigen, A alpha chain, allele A*26:03 (Homo sapiens, UniProt P04439)", "assay": "peptide-MHC binding", "system": "peptide", "setting": "concentration not given", "quantity": "binding", "value": "inactive"}
{"Substance": "GGGCUCACCACGCACGUGGGCGUGGUUUUGGUGGGGGCGGCCUCACCACGGCAAGCU", "target": "SMN1 full length", "assay": "nitrocellulose filter binding", "system": "RNA, in vitro", "setting": "100 nM, whole RNA, constant flanks, single concentration, ends assumed", "how to read": "relative to: round 9 selected pool, higher = stronger binding", "quantity": "relative RNA binding", "value": "7.8 % of pool"}
{"note": "Excerpt of the above (study 1):"}
{"Strand": "CUGCUGCCCUAGAACUAGCGGUUAGAAGAAUCCGCUGUUCCUCCCUCAUCUCCUCUGCCUGUGUCUGCGACCCCCAUCCAUGUGCCAAAGUGUCCCUUGGGUCACACAGC", "RBNS enrichment (R)": 0.783}
{"Strand": "CCUCUCAAACGAUCUUUAGAUAGUUAACUUCUACUACUAUUUAACGUUAUCUUUUAGCACUCAUAGAACAAACCAAGAUAUGGAAGAAGACAUAUUCAAAAGGUGGGCUU", "RBNS enrichment (R)": 0.671}
